Published values gathered from unrelated publications.
Compare with care: the assays were run in different laboratories. Bridges are numbered along the chain shown (N, C = ends). Where no end group is shown, it is not given here.
Organism: Staphylococcus aureus

CC[C@H](C)[C@H](N)C(=O)N[C@@H](CC(N)=O)C(=O)N[C@@H](CC(C)C)C(=O)N[C@@H](CCCCN)C(=O)N[C@@H](C)C(=O)N[C@H](C(=O)N[C@@H](C)C(=O)N[C@@H](C)C(=O)N[C@@H](CC(C)C)C(=O)N[C@@H](C)C(=O)N[C@@H](CCCCN)C(=O)N[C@@H](CCCCN)C(=O)N[C@@H](CC(C)C)C(=O)N[C@@H](CC(C)C)C(=O)O)[C@@H](C)CC
MIC (broth microdilution; USA300 LAC; 37 °C): > 100 µM

CC(C)C[C@H](NC(=O)[C@H](C)NC(=O)CNC(=O)[C@@H](NC(=O)[C@@H](NC(=O)[C@H](CCCCN)NC(=O)[C@H](CCCCN)NC(=O)[C@@H](NC(=O)[C@H](CC(C)C)NC(=O)[C@H](CCCCN)NC(=O)[C@H](CC(C)C)NC(=O)[C@H](CC(C)C)NC(=O)[C@@H](N)CCCCN)C(C)C)C(C)C)C(C)C)C(=O)NCC(N)=O
MIC (SH1000 GFP-expressing, nutrient broth; 20 h, 37 °C): 33 µM

actinomycin Y3
MIC (broth microdilution; ATCC 6538; 16 to 48 h): > 9.33 µg/mL

CC[C@H](C)[C@H](NC(=O)[C@H](Cc1ccc(O)cc1)NC(=O)[C@H](CCCCN)NC(=O)[C@@H](N)CS)C(=O)N[C@@H](CC(C)C)C(=O)N[C@@H](CC(C)C)C(=O)N[C@@H](CC(C)C)C(=O)N[C@@H](CCCNC(=N)N)C(=O)N[C@@H](CCCNC(=N)N)C(=O)N[C@@H](CCC(N)=O)C(=O)N[C@@H](CC(C)C)C(=O)N[C@@H](C)C(=O)N[C@@H](CCCNC(=N)N)C(=O)N[C@@H](C)C(=O)N[C@@H](Cc1c[nH]c2ccccc12)C(=O)N[C@@H](CCCNC(=N)N)C(=O)N[C@@H](CCCNC(=N)N)C(=O)NCC(=O)N[C@@H](CC(C)C)C(=O)N[C@@H](CCCNC(=N)N)C(=O)O
MIC (broth microdilution; media-adapted JE2; 18 to 20 h): 24 µg/mL

CC(C)C[C@H](NC(=O)[C@H](C)NC(=O)CNC(=O)[C@@H](NC(=O)[C@H](CC(C)C)NC(=O)[C@H](CCCCN)NC(=O)[C@H](CCCCN)NC(=O)[C@H](CC(C)C)NC(=O)[C@H](CC(C)C)NC(=O)[C@H](CCCCN)NC(=O)[C@H](CC(C)C)NC(=O)[C@H](CC(C)C)NC(=O)[C@@H](N)CCCCN)C(C)C)C(=O)NCC(N)=O
MIC (SH1000 GFP-expressing, nutrient broth; 20 h, 37 °C): 10 µM

CC[C@H](C)[C@H](NC(=O)[C@H](CC(C)C)NC(=O)CNC(=O)[C@H](CO)NC(=O)[C@@H](NC(=O)[C@H](CC(C)C)NC(=O)[C@@H](N)CC(N)=O)C(C)C)C(=O)N[C@@H](CCC(=O)O)C(=O)N[C@@H](C)C(=O)N[C@@H](CCCNC(=N)N)C(=O)N[C@@H](CCCCN)C(=O)N[C@@H](Cc1ccc(O)cc1)C(=O)N[C@@H](CC(C)C)C(=O)N[C@@H](CCC(=O)O)C(=O)N[C@@H](CCC(N)=O)C(=O)N[C@@H](CC(C)C)C(=O)N[C@@H](Cc1c[nH]cn1)C(=O)N[C@@H](CCCNC(=N)N)C(=O)N[C@@H](CCCCN)C(=O)N[C@@H](CC(C)C)C(=O)N[C@@H](CCCCN)C(=O)N[C@@H](CC(N)=O)C(=O)N[C@@H](CCCNC(=N)N)C(=O)N[C@@H](CCCCN)C(=O)N[C@H](C(=O)O)C(C)C
MIC (broth microdilution; USA300 LAC; 37 °C): > 92 µM

CC(C)C[C@H](NC(=O)[C@H](CC(C)C)NC(=O)[C@H](CCCCN)NC(=O)[C@H](CC(C)C)NC(=O)[C@H](CC(C)C)NC(=O)[C@H](CCCCN)NC(=O)[C@H](CCCCN)NC(=O)[C@H](CC(C)C)NC(=O)[C@H](CC(C)C)NC(=O)[C@H](CCCCN)NC(=O)[C@H](CC(C)C)NC(=O)[C@H](CC(C)C)NC(=O)[C@@H](N)CCCCN)C(=O)N[C@@H](CCCCN)C(N)=O
MIC (SH1000 GFP-expressing, nutrient broth; 20 h, 37 °C): 10 µM

CC[C@H](C)[C@H](NC(=O)[C@H](C)NC(=O)[C@@H](NC(=O)[C@H](C)NC(=O)CN)[C@@H](C)O)C(=O)N[C@@H](CCCCN)C(=O)N[C@@H](CCC(N)=O)C(=O)N[C@H](C(=O)N[C@@H](CCCCN)C(=O)N[C@@H](CCCCN)C(=O)N[C@@H](CC(C)C)C(=O)N[C@@H](Cc1ccccc1)C(=O)N[C@@H](CCCCN)C(=O)N[C@@H](CCCCN)C(=O)N[C@@H](CCCCN)C(=O)NCC(=O)NCC(N)=O)C(C)C
MIC (broth microdilution; ATCC 25923; 24 h, 37 °C): 310 µM

indolicidin
MIC (ATCC 25923): 3.66 µM

CC[C@H](C)[C@H](NC(=O)CNC(=O)[C@H](CCCNC(=N)N)NC(=O)[C@H](Cc1ccccc1)NC(=O)[C@@H](NC(=O)[C@H](Cc1c[nH]cn1)NC(=O)[C@H](Cc1c[nH]cn1)NC(=O)[C@H](Cc1ccccc1)NC(=O)[C@@H](N)Cc1ccccc1)[C@@H](C)CC)C(=O)N[C@H](C(=O)N[C@@H](Cc1c[nH]cn1)C(=O)N[C@H](C(=O)NCC(=O)N[C@@H](CCCCN)C(=O)N[C@H](C(=O)N[C@H](C(=O)N[C@@H](Cc1c[nH]cn1)C(=O)N[C@@H](CCCNC(=N)N)C(=O)N[C@@H](CC(C)C)C(=O)N[C@H](C(=O)N[C@H](C(=O)NCC(N)=O)[C@@H](C)O)C(C)C)[C@@H](C)CC)[C@@H](C)O)C(C)C)C(C)C
MIC (broth microdilution; MRSA clinical isolate, brain heart infusion; 18 h, 37 °C): 3.1 µg/mL

CCC(C)C(=O)c1c(O)cc(O)cc1OC/C=C(\C)CCC=C(C)C (stereo not shown)
MIC (broth microdilution; ATCC 29213 (MSSA)): 1.56 µg/mL

CC[C@H](C)[C@H](NC(=O)CNC(=O)[C@H](CCCNC(=N)N)NC(=O)[C@H](Cc1ccccc1)NC(=O)[C@@H](NC(=O)[C@H](Cc1c[nH]cn1)NC(=O)[C@H](Cc1c[nH]cn1)NC(=O)[C@H](Cc1ccccc1)NC(=O)[C@@H](N)Cc1ccccc1)[C@@H](C)CC)C(=O)N[C@H](C(=O)N[C@@H](Cc1c[nH]cn1)C(=O)N[C@H](C(=O)NCC(=O)N[C@@H](CCCCN)C(=O)N[C@H](C(=O)N[C@H](C(=O)N[C@@H](Cc1c[nH]cn1)C(=O)N[C@@H](CCCNC(=N)N)C(=O)N[C@@H](CC(C)C)C(=O)N[C@H](C(=O)N[C@H](C(=O)NCC(=O)O)[C@@H](C)O)C(C)C)[C@@H](C)CC)[C@@H](C)O)C(C)C)C(C)C
MIC (broth microdilution; USA300 LAC; 37 °C): 3.1 µM

CC[C@H](C)[C@H](NC(=O)CNC(=O)[C@H](CC(=O)O)NC(=O)[C@H](CCCNC(=N)N)NC(=O)[C@@H](NC(=O)[C@H](CC(N)=O)NC(=O)[C@H](CCCNC(=N)N)NC(=O)CNC(=O)[C@@H](NC(=O)[C@H](CCCCN)NC(=O)[C@H](CCC(=O)O)NC(=O)[C@@H](NC(=O)[C@H](CCCCN)NC(=O)[C@H](CCCCN)NC(=O)[C@H](Cc1ccccc1)NC(=O)[C@@H](NC(=O)[C@H](CCCCN)NC(=O)[C@H](Cc1c[nH]c2ccccc12)NC(=O)[C@@H](N)CCCCN)[C@@H](C)CC)[C@@H](C)CC)C(C)C)C(C)C)C(=O)N[C@H](C(=O)N[C@@H](CCCCN)C(=O)N[C@@H](C)C(=O)NCC(=O)N1CCC[C@H]1C(=O)N[C@@H](C)C(=O)N[C@H](C(=O)N[C@@H](CCC(N)=O)C(=O)N[C@H](C(=O)N[C@H](C(=O)NCC(=O)N[C@@H](CCC(N)=O)C(=O)N[C@@H](C)C(=O)N[C@H](C(=O)N[C@@H](CO)C(=O)N[C@H](C(=O)N[C@@H](C)C(=O)N[C@@H](CCCCN)C(N)=O)[C@@H](C)CC)[C@@H](C)O)C(C)C)C(C)C)C(C)C)[C@@H](C)CC
MIC (broth microdilution; ATCC 29213; 20 h, 37 °C): > 200 µg/mL

CC[C@H](C)[C@H](NC(=O)[C@H](CC(=O)O)NC(=O)[C@H](Cc1ccccc1)NC(=O)[C@H](CC(C)C)NC(=O)CN)C(=O)N[C@H](C(=O)N[C@@H](CCCCN)C(=O)N[C@@H](CCCCN)C(=O)N[C@H](C(=O)N[C@H](C(=O)N[C@@H](CCCCN)C(=O)N[C@@H](CC(C)C)C(=O)N[C@@H](CC(C)C)C(=O)N[C@@H](CCCCN)C(N)=O)C(C)C)C(C)C)C(C)C
MIC (ATCC 43300, CAMHB; 18 h, 37 °C): > 20 µM

O=c1c(Cc2ccccc2)nc2ccccc2n1-c1ccc([N+](=O)[O-])cc1[N+](=O)[O-]
MIC (microbial growth; ATCC25923): > 500 µg/mL

N=C(N)NCCC[C@H](NC(=O)[C@H](Cc1c[nH]cn1)NC(=O)[C@@H]1CCCN1C(=O)[C@H](CS)NC(=O)[C@@H](N)Cc1ccc(O)cc1)C(=O)N[C@@H](CS)C(=O)O
MIC (broth microdilution; MTCC 96; 37 °C): 110 µg/mL

CN[C@H](CC(C)C)C(=O)N[C@H]1C(=O)N[C@@H](CC(N)=O)C(=O)N[C@H]2C(=O)N[C@H]3C(=O)N[C@H](C(=O)N[C@H](C(=O)O)c4cc(O)cc(O)c4-c4cc3ccc4O)[C@H](O)c3ccc(c(Cl)c3)Oc3cc2cc(c3O[C@@H]2O[C@H](CO)[C@@H](O)[C@H](O)[C@H]2O[C@H]2C[C@](C)(N)[C@H](O)[C@H](C)O2)Oc2ccc(cc2Cl)[C@H]1O
MIC (ATCC 29213 MSSA): 1 µg/mL

CC[C@H](C)[C@H](NC(=O)[C@H](CCCNC(=N)N)NC(=O)[C@H](CC(C)C)NC(=O)[C@H](CCC(N)=O)NC(=O)[C@H](CCCCN)NC(=O)[C@H](CC(C)C)NC(=O)[C@H](CC(C)C)NC(=O)[C@H](CC(C)C)NC(=O)[C@@H](NC(=O)[C@H](CCCCN)NC(=O)[C@H](CC(=O)O)NC(=O)[C@H](C)NC(=O)[C@@H](NC(=O)[C@H](CCCCN)NC(=O)[C@H](CCCCN)NC(=O)[C@H](CC(=O)O)NC(=O)[C@@H](NC(=O)[C@@H](N)Cc1c[nH]cn1)C(C)C)C(C)C)C(C)C)C(=O)N[C@@H](CCSC)C(=O)N[C@@H](CCCNC(=N)N)C(=O)N[C@@H](CC(C)C)C(=O)N[C@@H](CC(C)C)C(=O)N[C@H](C(=O)N[C@@H](CCCNC(=N)N)C(=O)N[C@@H](CC(C)C)C(=O)O)[C@@H](C)O
MIC (broth microdilution; USA300 LAC; 37 °C): > 81 µM

FFPKVAGVAAKVLKKFCTISKKC (disulfide 17-23 (inferred)) (disulfide)
MIC (MRSA 12493; 18 h, 37 °C): > 128 µM

Repeated from above:
CC[C@H](C)[C@H](N)C(=O)N[C@@H](CC(N)=O)C(=O)N[C@@H](CC(C)C)C(=O)N[C@@H](CCCCN)C(=O)N[C@@H](C)C(=O)N[C@H](C(=O)N[C@@H](C)C(=O)N[C@@H](C)C(=O)N[C@@H](CC(C)C)C(=O)N[C@@H](C)C(=O)N[C@@H](CCCCN)C(=O)N[C@@H](CCCCN)C(=O)N[C@@H](CC(C)C)C(=O)N[C@@H](CC(C)C)C(=O)O)[C@@H](C)CC
MIC (broth microdilution; USA300 LAC; 37 °C): > 100 µM
